Measurements from different studies.
Every numbered part comes from another study and shows a few of its results, in no order. Changes are numbered by the printed parent chain.

Series 1 — technique: DHFR PCA, deep sequencing; matrix: yeast; added: (+)-ABA 200 µM; baseline: wild-type fitted maximum; reading: higher = stronger binding
Target: ABI1, truncated, D143A, DHFR fusion (Arabidopsis thaliana)
Notes: methotrexate growth selection, single substitutions
Starting sequence: PYL1, truncated, DHFR fusion (Arabidopsis thaliana); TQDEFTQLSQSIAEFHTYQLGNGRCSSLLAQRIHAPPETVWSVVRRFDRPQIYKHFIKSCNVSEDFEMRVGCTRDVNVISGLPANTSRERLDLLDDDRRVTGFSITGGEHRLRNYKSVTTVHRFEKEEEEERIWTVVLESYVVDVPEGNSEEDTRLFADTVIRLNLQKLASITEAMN
`R74S` — result for “relative binding score”: -3.42%.
Under “relative binding score”, `G102A` is recorded as 96.2%.
`N177R`: “relative binding score” 74.1%.
Under “relative binding score”, `P83L` is recorded as 4.06%.
Under “relative binding score”, `L156C` is recorded as 99.7%.
For `L82W`, “relative binding score” read 56.7%.
Under “relative binding score”, `I79V` is recorded as 108%.

Series 2 — technique: RNA Bind-n-Seq; molecule type: RNA; matrix: in vitro; concentration: 365 nM; baseline: no-protein control; reading: higher = stronger binding
Target: RNA binding protein fox-1 homolog 2, RRM domain, GST-SBP tag (RBFOX2, Homo sapiens, UniProt O43251-10, residues 100-194)
Notes: natural RNA segment, single round, ends assumed
Residues (chain): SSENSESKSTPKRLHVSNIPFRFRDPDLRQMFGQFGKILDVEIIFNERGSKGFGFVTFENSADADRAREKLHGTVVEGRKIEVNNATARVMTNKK
Under “RBNS enrichment (R)”, `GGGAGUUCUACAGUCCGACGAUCGAUGUAUGAACAAAAAAAAAUCAAUAAAAGAAUAUACUCUUUUCAUGGACUGUAGUAGUAUGUGAAUGUUACAUUUAGUUUGAACAGUUCUGAAGUAUAAGGAGAAAUGUUGGAAUUCUCGGGUGCCAA` is recorded as 5.25.
`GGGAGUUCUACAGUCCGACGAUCUAUUUAGAAAUGUCUUACUGUAUAUAUGUUUAUGUUUAUUUGGUCCUUAGAGAUUAAAAGCGGUCAUACAAGUAUGUUCCUAUUUCAUUUCUAUUUUUCACACCAUCACAUGGAAUUCUCGGGUGCCAA`: “RBNS enrichment (R)” 0.255.
`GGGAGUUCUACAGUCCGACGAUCGCUACCAUUCCCAAUGGGGCAGUCAACUCUGAGAAUAUUACAAGCCAUCUUUAUUGCCAAAACCAGCAAGUACACAGAGUCCUGAAACAAGGCAGGACUUUGGCAAUGCCUGGAAUUCUCGGGUGCCAA`: “RBNS enrichment (R)” 0.471.
`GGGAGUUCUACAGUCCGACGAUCCGACUUGGGGAAAUAAAUUUCCCACCUCGUCGGCCCCAGCUCUGUUUCUGCCACUCCUGUCCAAGCCCAAAGGACCUACACUAAAGAAAGCAGGAUGGGGGUGGGGGACCUGGAAUUCUCGGGUGCCAA` — result for “RBNS enrichment (R)”: 0.257.
For `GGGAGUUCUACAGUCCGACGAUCUGCCCACUGUUGGCGGCUCUGUGUGUUAAUAGGCUAGGGAGAGGAGUGUCUGCUGCCGCUUGCUUCCUGCCACGUUCUUGGAGAGGUGUCAAGUUUGGUAUGGCCAGGGAUGGAAUUCUCGGGUGCCAA`, “RBNS enrichment (R)” read 0.31.
Under “RBNS enrichment (R)”, `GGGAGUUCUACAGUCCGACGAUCAAAAUUUCUUUUCUCCACCAUGCUUUAUGUGAUAGUAUUUAAAAUUGAUGUGAGUUAUUAUGUCAAAAAAACUGAUCUAUUAAAGAAGUAAUUGGCCUUUCUGAGCUGAUUGGAAUUCUCGGGUGCCAA` is recorded as 0.337.
`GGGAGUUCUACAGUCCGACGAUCCUUAUAAAGUUGGGGGAGCAGCUGGGUUUGUACCUAUAACCUCAGCCUUUGAGAGAGAUUGAGAAAGGAGGCCCGCUUUGAGGCUAGCUGGGCUACGCGGUGAGGCCCUGUGGAAUUCUCGGGUGCCAA`: “RBNS enrichment (R)” 0.704.
`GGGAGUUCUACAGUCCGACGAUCCUCAGAGCCGCCCACCCUGGAUGAAUUCUGGUCCUUCAGAGAAUCGGCCCUACCAUGGCAUGCAUGGAGGUGGUCCUGGUGGUCCUGGAGGUGGCCCCCACAGCUUCCCAUGGAAUUCUCGGGUGCCAA` — result for “RBNS enrichment (R)”: 0.995.

Series 3 — technique: EMSA with sequencing; molecule type: double-stranded DNA, one strand shown; matrix: in vitro; concentration: 10 and 20 nM; baseline: negative control set to 0; reading: higher = stronger binding
Target: Hepatocyte nuclear factor 3-alpha (Foxa1, Mus musculus, UniProt P35582, residues 1-468, full length assumed)
Notes: whole designed probe, mean of two concentrations, ends assumed
Residues (chain): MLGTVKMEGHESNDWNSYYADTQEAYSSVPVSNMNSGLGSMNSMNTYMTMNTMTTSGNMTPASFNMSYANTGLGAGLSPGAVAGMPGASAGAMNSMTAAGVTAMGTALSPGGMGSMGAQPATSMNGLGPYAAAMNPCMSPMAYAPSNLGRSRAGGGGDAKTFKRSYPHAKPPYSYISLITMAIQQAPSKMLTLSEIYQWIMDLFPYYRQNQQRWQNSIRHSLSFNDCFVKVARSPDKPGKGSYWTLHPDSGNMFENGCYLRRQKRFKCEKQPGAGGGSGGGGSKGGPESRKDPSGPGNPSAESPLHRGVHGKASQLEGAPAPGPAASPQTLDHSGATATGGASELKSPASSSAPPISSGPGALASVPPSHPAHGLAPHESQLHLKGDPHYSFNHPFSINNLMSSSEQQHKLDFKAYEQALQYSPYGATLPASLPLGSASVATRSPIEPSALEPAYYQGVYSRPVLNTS
For `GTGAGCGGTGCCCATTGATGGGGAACTCTGCTGCAGGGCTTGCAGGAACAAATGTTTACAGCCCCTAGGCGGCAGGGGGAGCATCTCCCCTCTGAGTTATGAGCTTTAGAGGCTCCTGTGTAAATATTTACCTCTCTAGAGCATTGGTGACCGTGGGAGATCGGGATCTGTAAGCACTGAGGTTTTCTGTTTGCGTCATCGTGGCCAGGGTGGGGTGGGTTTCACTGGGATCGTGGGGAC`, “normalised bound fraction” read 0.404 ratio.
`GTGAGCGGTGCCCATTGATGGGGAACATGTGCTAAAAATACAAGACTTGCTTACGCAGAGAGCCGGGAGCTATGTTCCAGTGAGGGTGGAAACAAAAGCCTCAGTATAAGACTGTCAGGTGTTTACACTTGCTCATGTAAGGGTGTGGTGGCAACACGAGGTTGCTGGACTCCACATGCTGAGGCTCAAAGTAGAAATCACTGATCTTATGTCACATATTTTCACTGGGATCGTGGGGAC`: “normalised bound fraction” 0.221 ratio.
`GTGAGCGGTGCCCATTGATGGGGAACAGATGGCCAACTGGCACTTTTATAATTTTTAAAAGAGCTGACAATTAAAAAGATGTGGGATGGGGGAAAATAAAGAGAATTCCTCCCTAAAAAAGTAATCTAGTACTAATTTTTTTATTATTTGGGTGATCAGTGCTAATCAGATTGACTTTATTTGGAGGCCCTGAGAACCACATGGTACCAAAAATCCAGATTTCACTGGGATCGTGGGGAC` — result for “normalised bound fraction”: 0.0708 ratio.
Under “normalised bound fraction”, `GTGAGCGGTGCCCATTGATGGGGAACGGGTGGGGAAGCAAACATTCAATACTTTGCACCAGTGTAACACCAATTATACTGGATTCATTTAATATGCTTGTCTCCTATTAATTAATATTTGTTTACATTGTCAATGTTTTGAAAGTACTTCATAATCAGTATGATATTTCCTATTACGCCTTCTCCATGTAAAAAATATTTATCCATCTATCTATAAACTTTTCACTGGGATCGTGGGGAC` is recorded as 0.516 ratio.
For `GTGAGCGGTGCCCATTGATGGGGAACCCCACCCCCTCCAAAAGAAGCACTTTACTTATGTACTCACATATTTTCGGTTTCTGTGGCTGTGTTACTGGGTAGCTGTCCAGTTGAGACGAGATGTTTACTTAAGCCACACCCAGCAGAGTCAGCTTTTAATGTGTTGGGGGCACTATTTTAATCCTGTGCTGATTTGTAACCATCATCTATGGGATGCCTTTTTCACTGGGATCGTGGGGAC`, “normalised bound fraction” read 0.465 ratio.
For `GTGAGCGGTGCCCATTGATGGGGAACGTGTGTGCGCGCGCGTGTGTGTGTGTTTTCTTAAGCCGGGCTATTCAAACCCTGCTGCCAATGATTCATAATTCTCCGGTAAAGGGGCATAATGCAAATAAACGGATTGCAAACGGCGCGGTTCGCGCACTTTGCAGCCGGCCCGGTGGAGCAGCCAGTGCCGGATTTCTCCCTTTTTTTGCAGATCTGCAGATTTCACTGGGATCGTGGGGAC`, “normalised bound fraction” read 0.419 ratio.
`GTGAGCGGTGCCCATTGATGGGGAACTCGGCCAGCCTGGCTTCTGCGCCCCGCCAGGAGGTCGCGGAGCGGAGCGCGGCCAGGAAGTGAGCTGAGAGTGACAGCTCCCCCCACGCTGTTTGTTTATTCATGTCACATTCTCTCCACACACTGGCTCTTCTTTCTTTCGGGAGGAGGGGAGAAAGGAGCGGGAGGGCGGGCGGGCAGGGGAGAGGCAGGCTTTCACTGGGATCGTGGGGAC`: “normalised bound fraction” 0.382 ratio.
`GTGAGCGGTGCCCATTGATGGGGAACATCTTCCCCCTCTTCCTTGCCCCACCAGCTCACCTACGGGGGTTATTTGCAGATAGGAAAATAAATAAAGCCGGCATTCGTTAACGCAGTTCACGCGCATACTGCTGTTTGCTCTGGATGAATCATGGTCCTTTGGCGAGGCGTGGCTCCGGGAGAGCAAAGCACCGTGTCAGGGCCATGATCCGGGCTCGCCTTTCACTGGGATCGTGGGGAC`: “normalised bound fraction” 0.344 ratio.

Mixed results
`PhoQ, residues 284 288 289 292 302 303 NLCILV` gave a fold induction of 5.79 (PhoP, residues 12 14 15 18 19 IQSYL (Escherichia coli, UniProt P23836); Sort-seq, refers to: YFP reporter; E. coli; PhoQ-PhoP variant library, added: 10 µM Mg2+; baseline: high Mg2+ state, higher = stronger signaling).
